Measured values gathered from unrelated publications.
Parts stem from different laboratories: compare values within a part only.

Study 1
Target: Histone acetyltransferase KAT6A, both winged helices, GST fusion (KAT6A, Homo sapiens, UniProt Q92794, residues 1-181)
Technique: protein binding microarray
Molecule type: double-stranded DNA, one strand shown
Matrix: in vitro
Concentration: not given
Notes: 8-mer, flanks averaged, mean of 2 arrays, mostly near background
Relative to: not given
Reading: higher = stronger binding
Residues (chain): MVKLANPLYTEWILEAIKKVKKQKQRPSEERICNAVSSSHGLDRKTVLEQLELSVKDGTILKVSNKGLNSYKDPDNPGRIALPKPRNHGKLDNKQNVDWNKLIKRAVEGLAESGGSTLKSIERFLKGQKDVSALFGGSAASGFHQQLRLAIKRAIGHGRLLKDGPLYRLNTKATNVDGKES
Oligonucleotide	E-score
AAGCATCC	0.0261
GGAAGGAA	-0.0855
TACCAGGA	-0.0818
CTTTTCCC	-0.13
AATCAGCG	0.104
CAGGGGGG	-0.249
CCTTGTCC	-0.13
GTAGGCAA	-0.264
GAGGCTGA	-0.211
TGTGGTAA	-0.12
CAAGCATG	-0.127
ACCAGTTG	-0.132
CCGTTGAC	0.187
ACACTTAG	-0.175
GCCTCAAA	-0.0558
AGCCCATC	-0.224
AATACGGA	0.227

Study 2
Target: RNA binding protein fox-1 homolog 2, RRM domain, GST-SBP tag (RBFOX2, Homo sapiens, UniProt O43251-10, residues 100-194)
Technique: RNA Bind-n-Seq
Molecule type: RNA
Matrix: in vitro
Concentration: 365 nM
Notes: natural RNA segment, single round, ends assumed
Relative to: no-protein control
Reading: higher = stronger binding
All sequences stand within: GGGAGUUCUACAGUCCGACGAUC … UGGAAUUCUCGGGUGCCAA
Residues (chain): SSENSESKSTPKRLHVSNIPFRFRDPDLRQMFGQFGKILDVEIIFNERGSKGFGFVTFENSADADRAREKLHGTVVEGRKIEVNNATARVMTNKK
Oligonucleotide	RBNS enrichment (R)
UCCUGUGUGCUGGUUAGUUAUGCAAGAAGAAAGCCCCGUAGAAACAGCCUCCAGCUGCACUGGGAGACGUAGGGAGGGAAGCAGGGUCCACAGCCAUUCCCUCAUGAGAG	2.56
UUUGGAAAUUGUUAUGUAUCACUAAAAGCAUGAAUUGGAACUGCACUGGAAGUCAAAUUCACUUAAAAAAGAAAUUGUGUGGCUUCACCAAGAAGCAGAGUUCAACUUAU	11.1
GAACAAUGCCAGGGCCCAGGAGGACCGCCUGCCCUGCCUGGGCCUUGGCUGGGCCUCUGGUUCUGACACUUUCUGCUGGAAGCUGUCAGGCUGGGACAGGCUUUGAUUUU	0.883
ACAGACAAGUCCUGUGUAACCUGCUUUAAAUGCUACACAUGUUAAUAAAAUGCUUAUUUGGUUAGCUUUCAAUGUCUCUUACUGAAAACAUAGCCCCUCUAUAACAUGCA	0.788
GUAAGCAGUCAGUCGUGGCUCAGAACUUAACCCCAUAGCUCAGAGGAAUGCUUUUAGCAGAAAACAGGAAAGAAAAUAUCCCUUAAAAAUUUUUUUUGAAUGUGUGGAAG	0.435
GACAGAGGGACGAUGUUGAGUCUAGAAGGGCACAAUAUGCCAGAGUUUUAUGGCCAGUGAUCCUCAAAUCCAUUGGCUGUUUGAAGACCCUGUCCUCACUUCUCCUUUUU	0.37
CUCAUUACUAAUAUUUGUUGUAAAAGUGAAACUUGUUUGCCGACCAAUAAACAACUGAUUGAGAUUUAGAAGAGAUUGCUUUGACGUAUGUACUGUAUUAUCAAGUCCUC	0.334
CUGUGAAUUAGCACUAUUUUCUAUAGUUACUUAUUCUCUGGAUCAUUUUAUAAUUUCCAUAUUAAUUUCAAAUAUGCUCGUGUUAUUCUUCAGUGAUUUCCACAAUUGUG	1.5

Study 3
Target: Prothrombin, mature alpha-thrombin (F2, Homo sapiens, UniProt P00734)
Technique: aptamer microarray, sandwich
Molecule type: DNA with 2'F-ANA
Matrix: in vitro
Concentration: 200 nM
Notes: whole 15-mer aptamer, many near background
With: Cy3 exosite-II aptamer, 400 nM
Reading: higher = stronger binding
Oligonucleotide: GGTTGGTGTGGTTGG
Modification	mean fluorescence intensity
2'F-ANA at 3 6 8 13 14 15	465 a.u.
2'F-ANA at 1 5 8 9 10 11 13 15	51 a.u.
2'F-ANA at 1 3 5 6 8 9 10 11 13 14	48.2 a.u.
2'F-ANA at 1 2 3 6 11 15	156 a.u.
2'F-ANA at 6 7 11	462 a.u.
2'F-ANA at 1 2 7 8 9 10 11 12 13	63.3 a.u.
2'F-ANA at 4 6 7 8 9 10 12	125 a.u.
2'F-ANA at 1 5 7 8 10 11 14 15	48.4 a.u.
2'F-ANA at 2 3 4 6 9 12 13 14	222 a.u.
2'F-ANA at 1 2 3 7 8 10 12 13 14 15	110 a.u.
2'F-ANA at 2 4 10 11 13 15	70.1 a.u.
2'F-ANA at 1 6 7 8 9	219 a.u.
2'F-ANA at 7 9 11 13	486 a.u.
2'F-ANA at 1 5 6 11 12 14 15	45.4 a.u.
2'F-ANA at 1 2 4 5 6 8 9 12 13 15	84.7 a.u.
2'F-ANA at 1 2 4 7 8 9 10 12	68.4 a.u.
2'F-ANA at 2 4 5 8 9 10 11 12 13 14	47 a.u.
2'F-ANA at 2 3 10 12 14	359 a.u.
2'F-ANA at 2 3 5 7 9 11 13 14	53.7 a.u.
2'F-ANA at 2 4 7 8 9 10 11 12 13 14 15	64 a.u.
2'F-ANA at 1 4 6 8 11 14	49 a.u.
2'F-ANA at 6 7 8 11 15	420 a.u.

Study 4
Target: Interferon regulatory factor 7, full length, phosphomimetic (IRF7, Homo sapiens, UniProt Q92985, residues 1-503, S101K/S471D/S472D/S475D/S476D/S477D/S483D/S484D/S487D)
UniProt Q92985, sequence (whole entry, unmodified, looked up): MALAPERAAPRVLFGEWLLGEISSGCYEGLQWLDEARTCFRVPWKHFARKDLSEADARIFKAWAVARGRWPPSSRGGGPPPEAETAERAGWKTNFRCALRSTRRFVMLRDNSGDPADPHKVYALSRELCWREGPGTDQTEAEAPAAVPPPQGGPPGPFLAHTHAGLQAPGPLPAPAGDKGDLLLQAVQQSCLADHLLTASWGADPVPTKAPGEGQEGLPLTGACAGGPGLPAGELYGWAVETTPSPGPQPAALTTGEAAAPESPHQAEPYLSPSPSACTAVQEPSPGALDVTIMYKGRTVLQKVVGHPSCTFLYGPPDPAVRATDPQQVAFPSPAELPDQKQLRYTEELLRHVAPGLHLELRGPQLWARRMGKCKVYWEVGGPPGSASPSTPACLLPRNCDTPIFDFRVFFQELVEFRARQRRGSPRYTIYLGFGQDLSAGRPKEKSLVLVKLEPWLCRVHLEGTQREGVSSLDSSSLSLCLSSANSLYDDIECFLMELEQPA
Technique: protein-binding microarray
Molecule type: double-stranded DNA, one strand shown
Matrix: in vitro
Concentration: 250 nM
Notes: 60-bp whole probe
With: salmon DNA 0.4 mg/ml
Relative to: random background probes
Reading: higher = stronger binding
All sequences stand within: GCCTAGCAC … GTCTTGATTCGCTTGACGCTGCTG
Oligonucleotide	log fluorescence [z-score]
TTAGATTTCAGATTGGATTAGTGCTAG	0.464
TTAGGACTTGGGTATCGGTTAGTGCTA	0.554
GACGGTTTCCTTTCGCTGACGTGCTAG	7.39
TGGGAAATTCCTCTGAGGCAGTGCTAG	-0.426
GTCGATTTCAGTTTCGAGACGTGCTAG	6.03
GATGGTATCCTTCTCCTGACGTGCTAG	0.0865
TTAGATTTCAGTTTCGATTTGTGCTAG	13.2
TTAGGTATCGGACTGGGGTAGTGCTAG	0.000126
GACGTTTCCAGTTTCGAGACGTGCTAG	6.46
TTAGGAGTGGACTTTCGGTTAGTGCTA	0.242
ACTGCATTCCCTTTCTCAACGTGCTAG	0.984
TCAAGCCTCTGCATTCCCACTGTGCTA	-0.816
GACGGACTGCTTTACCTGACGTGCTAG	0.121
TCATACTTCACTCTCTGACTGTGCTAG	0.281
TCATTTTTAATGAATGAAACTGTGCTA	0.719
TTAGGTTACGGACTGGGTTAGTGCTAG	0.0923
TTAGGACTGCTTCGCCTTTAGTGCTAG	0.6
TGTCTTTTCACTTTCTTTAAGTGCTAG	2.46
TGAGGTTTCGGGTTTCGGTTAGTGCTA	13.1

For quick reference, copied from above (study 4):
Oligonucleotide	log fluorescence [z-score]
GATGGTATCCTTCTCCTGACGTGCTAG	0.0865
GACGGACTGCTTTACCTGACGTGCTAG	0.121
TTAGGACTTGGGTATCGGTTAGTGCTA	0.554
TCAAGCCTCTGCATTCCCACTGTGCTA	-0.816
TTAGGACTGCTTCGCCTTTAGTGCTAG	0.6
ACTGCATTCCCTTTCTCAACGTGCTAG	0.984
TTAGGAGTGGACTTTCGGTTAGTGCTA	0.242
